Experimental data collected from several papers.
Every numbered part comes from another study and shows a few of its results, in no order. Several values in a cell are separate wells, animals, samples, runs or records.
Sequence of UniProt P07949 (whole entry, unmodified, looked up): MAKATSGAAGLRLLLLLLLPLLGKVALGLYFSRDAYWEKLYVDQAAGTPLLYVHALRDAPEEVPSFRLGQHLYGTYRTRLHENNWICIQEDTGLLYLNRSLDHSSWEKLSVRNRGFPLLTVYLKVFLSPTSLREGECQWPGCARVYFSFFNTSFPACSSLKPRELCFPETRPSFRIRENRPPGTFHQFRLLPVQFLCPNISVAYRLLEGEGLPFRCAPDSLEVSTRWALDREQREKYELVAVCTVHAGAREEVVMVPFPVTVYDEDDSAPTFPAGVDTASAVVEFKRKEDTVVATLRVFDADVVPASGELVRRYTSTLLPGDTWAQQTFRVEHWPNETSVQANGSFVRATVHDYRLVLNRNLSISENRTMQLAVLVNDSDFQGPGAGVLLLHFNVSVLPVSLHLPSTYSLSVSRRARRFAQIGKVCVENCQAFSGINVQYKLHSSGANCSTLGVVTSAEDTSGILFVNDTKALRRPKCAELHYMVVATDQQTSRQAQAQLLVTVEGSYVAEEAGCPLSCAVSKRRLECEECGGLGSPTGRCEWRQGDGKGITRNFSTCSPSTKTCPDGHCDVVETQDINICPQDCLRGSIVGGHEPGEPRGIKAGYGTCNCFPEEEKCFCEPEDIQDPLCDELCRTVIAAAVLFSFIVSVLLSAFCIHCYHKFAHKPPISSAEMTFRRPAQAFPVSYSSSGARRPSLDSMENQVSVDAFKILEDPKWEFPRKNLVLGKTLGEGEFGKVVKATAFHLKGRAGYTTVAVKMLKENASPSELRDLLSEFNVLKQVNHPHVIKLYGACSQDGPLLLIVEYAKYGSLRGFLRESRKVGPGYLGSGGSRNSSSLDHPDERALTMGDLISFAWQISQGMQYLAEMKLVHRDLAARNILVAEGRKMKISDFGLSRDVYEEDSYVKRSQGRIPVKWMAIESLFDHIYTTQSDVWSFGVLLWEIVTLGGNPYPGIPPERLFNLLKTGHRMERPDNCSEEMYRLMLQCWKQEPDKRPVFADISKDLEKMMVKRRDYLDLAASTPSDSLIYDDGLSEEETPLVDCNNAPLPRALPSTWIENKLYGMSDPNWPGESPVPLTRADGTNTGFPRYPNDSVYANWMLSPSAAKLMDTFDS
Sequence of UniProt Q15418 (whole entry, looked up): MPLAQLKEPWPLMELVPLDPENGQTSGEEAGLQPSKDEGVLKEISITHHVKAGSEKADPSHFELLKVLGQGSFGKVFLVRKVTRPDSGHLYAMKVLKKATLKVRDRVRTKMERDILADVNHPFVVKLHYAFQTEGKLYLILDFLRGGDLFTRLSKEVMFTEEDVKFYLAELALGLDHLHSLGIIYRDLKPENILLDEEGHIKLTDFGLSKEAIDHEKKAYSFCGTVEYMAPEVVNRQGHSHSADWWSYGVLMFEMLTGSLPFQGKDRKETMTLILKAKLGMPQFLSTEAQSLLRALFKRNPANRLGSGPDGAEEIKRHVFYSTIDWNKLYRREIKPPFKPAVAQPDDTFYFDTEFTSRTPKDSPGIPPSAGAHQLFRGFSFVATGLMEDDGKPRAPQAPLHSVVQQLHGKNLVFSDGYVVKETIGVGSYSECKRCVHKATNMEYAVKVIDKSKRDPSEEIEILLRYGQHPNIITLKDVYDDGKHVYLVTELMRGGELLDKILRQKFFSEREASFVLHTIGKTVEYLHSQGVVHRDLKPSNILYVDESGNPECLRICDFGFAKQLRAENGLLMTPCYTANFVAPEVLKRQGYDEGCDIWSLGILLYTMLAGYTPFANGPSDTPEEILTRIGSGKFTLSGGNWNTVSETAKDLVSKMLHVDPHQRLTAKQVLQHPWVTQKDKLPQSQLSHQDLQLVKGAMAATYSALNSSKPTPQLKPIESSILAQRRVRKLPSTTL

Sample 1
Cell line: mouse MPNST tumor cells
Technique: high-content nuclear imaging
Refers to: cell number
Tested at: 10 µM
Time: 12 h
Setting: mean of 2 replicates
Baseline: plate mean
Direction: higher = more cells
`CS(=O)(=O)Nc1ccc(-c2coc3cc(OCc4cccc(C(=O)O)c4)ccc3c2=O)cc1` gave a nuclei count of 1.74 z-score.
`CC(=O)Nc1c(I)c(C(=O)N[C@H]2C(O)O[C@H](CO)[C@@H](O)[C@@H]2O)c(I)c(N(C)C(C)=O)c1I` (some centres unmarked) gave a nuclei count of 1.4 z-score.
The nuclei count of `CCCCN(CCCC)CC(O)c1cc(Cl)cc2c1-c1ccc(Cl)cc1/C2=C/c1ccc(Cl)cc1` (centres unmarked) is reported as 2.32 z-score.
The nuclei count of `COC(=O)/C=C/c1cccc(N(Cc2ccc(-c3ccc(N(C)C)cc3)cc2)C(=O)C2CCCCC2)c1` is reported as 2.46 z-score.
With `CC1(C)CCC(C)(C)c2cc(C#Cc3ccc(C(=O)O)cc3)ccc21` the nuclei count was 0.602 z-score.

Sample 2
Cell line: A-375
Tested at: 100 µM
Time: 36 h
`CC(C)(Oc1ccc(Cl)cc1)C(=O)OCCOC(=O)c1cccnc1` has a viability of 95.6%.
For `CC1(C)[C@@H](OC(=O)CCC(=O)O)CC[C@]2(C)[C@H]3C(=O)C=C4[C@@H]5C[C@@](C)(C(=O)O)CC[C@]5(C)CC[C@@]4(C)[C@]3(C)CC[C@@H]12`, the viability was 19.6%.
`Nc1ccn([C@@H]2CS[C@H](CO)O2)c(=O)n1` has a viability of 108%.
The viability of `CCOC(=O)Nc1ccc(NCc2ccc(F)cc2)nc1N` is reported as 104%.
The viability of `CC(C)NCC(O)c1ccc(O)c(O)c1` (centres unmarked) is reported as 97.6%.
`COc1ccc(CN2CCN(C(c3ccc(F)cc3)c3ccc(F)cc3)CC2)c(OC)c1OC` has a viability of 34.1%.

Sample 3
Structure (SMILES): Cc1nc(Nc2ncc(C(=O)Nc3c(C)cccc3Cl)s2)cc(N2CCN(CCO)CC2)n1
Mode: inhibitor
Tested at: 10 µM
For MELK (Homo sapiens, UniProt Q14680): inhibition read < 50%.
It gave < 50% for inhibition (ULK2 (Homo sapiens, UniProt Q8IYT8)).
The inhibition was < 50% (ALK (Homo sapiens, UniProt Q9UM73)).
For MAP4K3 (Homo sapiens, UniProt Q8IVH8): inhibition read 98%.

Sample 4
SMILES: O=C(Nc1ccc(Oc2ccc(F)cc2)cc1)N1CCc2ncccc2[C@H]1c1ccc(F)cc1
Observed: cell-free assay
Technique: competition with immobilised ligand
Tested at: 1 µM
ACVR1 (Homo sapiens, UniProt Q04771) — remaining binding: 96%.
The remaining binding was 93% (PRKCH (Homo sapiens, UniProt P24723)).
For MAP3K10 (Homo sapiens, UniProt Q02779): remaining binding read 100%.
TGFBR2 (Homo sapiens, UniProt P37173) — remaining binding: 91%.
The remaining binding was 93% (BTK (Homo sapiens, UniProt Q06187)).
The remaining binding was 81% (MAP2K5 (Homo sapiens, UniProt Q13163)).
RET (Homo sapiens, UniProt P07949) — remaining binding: 94%.
For PHKG1 (Homo sapiens, UniProt Q16816): remaining binding read 100%.
The remaining binding was 100% (RPS6KB1 (Homo sapiens, UniProt P23443)).
The remaining binding was 98% (MAP3K13 (Homo sapiens, UniProt O43283)).
It gave 87% for remaining binding (TSSK1B (Homo sapiens, UniProt Q9BXA7)).
PIK3CA (Homo sapiens, UniProt P42336) — remaining binding: 83%.
It gave 79% for remaining binding (Ribosomal protein S6 kinase alpha-1, N-terminal kinase domain (RPS6KA1, Homo sapiens, UniProt Q15418)).
It gave 79% for remaining binding (MAST1 (Homo sapiens, UniProt Q9Y2H9)).
For MINK1 (Homo sapiens, UniProt Q8N4C8): remaining binding read 99%.
For Non-receptor tyrosine-protein kinase TYK2, JH2 (TYK2, Homo sapiens, UniProt P29597): remaining binding read 100%.
Cyclin-dependent kinase 4, with cyclin D1 (CDK4, Homo sapiens, UniProt P11802) — remaining binding: 100%.
For RET (Homo sapiens, UniProt P07949, V804L): remaining binding read 95%.
MAP3K9 (Homo sapiens, UniProt P80192) — remaining binding: 100%.
NEK1 (Homo sapiens, UniProt Q96PY6) — remaining binding: 100%.
It gave 100% for remaining binding (CSK (Homo sapiens, UniProt P41240)).
Ribosomal protein S6 kinase alpha-1, C-terminal kinase domain (RPS6KA1, Homo sapiens, UniProt Q15418) — remaining binding: 92%.
EPHB4 (Homo sapiens, UniProt P54760) — remaining binding: 100%.
The remaining binding was 95% (CDK8 (Homo sapiens, UniProt P49336)).
For NUAK2 (Homo sapiens, UniProt Q9H093): remaining binding read 82%.

Sample 5
Host: mouse
Medium: microsomes or S9
Tested at: 2 µM
Time: 0.5 h
For `c1ccc(Cc2nc(Cn3cc(-c4cncnc4)nn3)cs2)cc1`, the remaining compound was 89%.
For `COc1ccc(Cl)cc1NC(=O)c1cc(S(=O)(=O)N2CCc3ccccc32)cn1C`, the remaining compound was 6.8%.
`Cc1oc(-c2[nH]ncc2C(=O)N(C)C)cc1S(=O)(=O)NCCCN(C)C` gave a remaining compound of 85.7%.
With `CC1CCN(CCCNc2ncc(-c3cnccn3)c(-c3ccco3)n2)CC1` the remaining compound was 0.732%.
For `CCN(CCCN1C(=O)CCC1(C)C(=O)NCCC(C)C)c1cccc(C)c1` (centres unmarked), the remaining compound was 0.746%.
With `COc1cc(=O)[nH]cc1C(=O)N1CCC(OCC2CCCC2)CC1` the remaining compound was 74.5%.

Sample 6
Target: Calcium/calmodulin-dependent protein kinase type II subunit alpha (CAMK2A, Homo sapiens, UniProt Q9UQM7)
Sequence of UniProt Q9UQM7 (whole entry, looked up): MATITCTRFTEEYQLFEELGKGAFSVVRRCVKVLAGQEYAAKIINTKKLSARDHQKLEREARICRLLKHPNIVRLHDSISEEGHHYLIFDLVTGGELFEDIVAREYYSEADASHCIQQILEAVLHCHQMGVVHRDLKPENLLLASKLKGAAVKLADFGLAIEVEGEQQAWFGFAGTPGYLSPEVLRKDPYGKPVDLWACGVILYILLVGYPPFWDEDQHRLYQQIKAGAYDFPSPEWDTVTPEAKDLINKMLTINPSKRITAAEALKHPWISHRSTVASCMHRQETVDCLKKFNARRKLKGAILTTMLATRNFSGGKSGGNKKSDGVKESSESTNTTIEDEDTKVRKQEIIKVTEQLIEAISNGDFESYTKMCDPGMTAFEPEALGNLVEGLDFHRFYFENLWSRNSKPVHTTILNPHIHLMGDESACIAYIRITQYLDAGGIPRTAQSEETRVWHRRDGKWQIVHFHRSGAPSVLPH
Observed: enzyme activity
Mode: inhibitor
Tested at: 10 µM
With `C[C@@H]1C/C=C/C=C/C=C/C=C/[C@H](O[C@@H]2O[C@H](C)[C@@H](O)[C@H](N)[C@@H]2O)C[C@@H]2O[C@](O)(C[C@@H](O)C[C@H]3O[C@@H]3/C=C/C(=O)O1)C[C@H](O)[C@H]2C(=O)O` the inhibition was -19%.
`COc1cc([C@H]2Oc3ccc([C@H]4Oc5cc(O)cc(O)c5C(=O)[C@@H]4O)cc3O[C@@H]2CO)ccc1O` gave an inhibition of 3%.
`CCOC(=O)n1ccn(C)c1=S` gave an inhibition of -18%.
The inhibition of `O=C(O)C=Cc1ccc(O)cc1` is reported as -22%.

Further values, each from its own experiment
POLQ ATPase domain: DNA polymerase theta, ATPase domain (POLQ, Homo sapiens, UniProt O75417)
Sequence of UniProt O75417 (whole entry, unmodified, looked up): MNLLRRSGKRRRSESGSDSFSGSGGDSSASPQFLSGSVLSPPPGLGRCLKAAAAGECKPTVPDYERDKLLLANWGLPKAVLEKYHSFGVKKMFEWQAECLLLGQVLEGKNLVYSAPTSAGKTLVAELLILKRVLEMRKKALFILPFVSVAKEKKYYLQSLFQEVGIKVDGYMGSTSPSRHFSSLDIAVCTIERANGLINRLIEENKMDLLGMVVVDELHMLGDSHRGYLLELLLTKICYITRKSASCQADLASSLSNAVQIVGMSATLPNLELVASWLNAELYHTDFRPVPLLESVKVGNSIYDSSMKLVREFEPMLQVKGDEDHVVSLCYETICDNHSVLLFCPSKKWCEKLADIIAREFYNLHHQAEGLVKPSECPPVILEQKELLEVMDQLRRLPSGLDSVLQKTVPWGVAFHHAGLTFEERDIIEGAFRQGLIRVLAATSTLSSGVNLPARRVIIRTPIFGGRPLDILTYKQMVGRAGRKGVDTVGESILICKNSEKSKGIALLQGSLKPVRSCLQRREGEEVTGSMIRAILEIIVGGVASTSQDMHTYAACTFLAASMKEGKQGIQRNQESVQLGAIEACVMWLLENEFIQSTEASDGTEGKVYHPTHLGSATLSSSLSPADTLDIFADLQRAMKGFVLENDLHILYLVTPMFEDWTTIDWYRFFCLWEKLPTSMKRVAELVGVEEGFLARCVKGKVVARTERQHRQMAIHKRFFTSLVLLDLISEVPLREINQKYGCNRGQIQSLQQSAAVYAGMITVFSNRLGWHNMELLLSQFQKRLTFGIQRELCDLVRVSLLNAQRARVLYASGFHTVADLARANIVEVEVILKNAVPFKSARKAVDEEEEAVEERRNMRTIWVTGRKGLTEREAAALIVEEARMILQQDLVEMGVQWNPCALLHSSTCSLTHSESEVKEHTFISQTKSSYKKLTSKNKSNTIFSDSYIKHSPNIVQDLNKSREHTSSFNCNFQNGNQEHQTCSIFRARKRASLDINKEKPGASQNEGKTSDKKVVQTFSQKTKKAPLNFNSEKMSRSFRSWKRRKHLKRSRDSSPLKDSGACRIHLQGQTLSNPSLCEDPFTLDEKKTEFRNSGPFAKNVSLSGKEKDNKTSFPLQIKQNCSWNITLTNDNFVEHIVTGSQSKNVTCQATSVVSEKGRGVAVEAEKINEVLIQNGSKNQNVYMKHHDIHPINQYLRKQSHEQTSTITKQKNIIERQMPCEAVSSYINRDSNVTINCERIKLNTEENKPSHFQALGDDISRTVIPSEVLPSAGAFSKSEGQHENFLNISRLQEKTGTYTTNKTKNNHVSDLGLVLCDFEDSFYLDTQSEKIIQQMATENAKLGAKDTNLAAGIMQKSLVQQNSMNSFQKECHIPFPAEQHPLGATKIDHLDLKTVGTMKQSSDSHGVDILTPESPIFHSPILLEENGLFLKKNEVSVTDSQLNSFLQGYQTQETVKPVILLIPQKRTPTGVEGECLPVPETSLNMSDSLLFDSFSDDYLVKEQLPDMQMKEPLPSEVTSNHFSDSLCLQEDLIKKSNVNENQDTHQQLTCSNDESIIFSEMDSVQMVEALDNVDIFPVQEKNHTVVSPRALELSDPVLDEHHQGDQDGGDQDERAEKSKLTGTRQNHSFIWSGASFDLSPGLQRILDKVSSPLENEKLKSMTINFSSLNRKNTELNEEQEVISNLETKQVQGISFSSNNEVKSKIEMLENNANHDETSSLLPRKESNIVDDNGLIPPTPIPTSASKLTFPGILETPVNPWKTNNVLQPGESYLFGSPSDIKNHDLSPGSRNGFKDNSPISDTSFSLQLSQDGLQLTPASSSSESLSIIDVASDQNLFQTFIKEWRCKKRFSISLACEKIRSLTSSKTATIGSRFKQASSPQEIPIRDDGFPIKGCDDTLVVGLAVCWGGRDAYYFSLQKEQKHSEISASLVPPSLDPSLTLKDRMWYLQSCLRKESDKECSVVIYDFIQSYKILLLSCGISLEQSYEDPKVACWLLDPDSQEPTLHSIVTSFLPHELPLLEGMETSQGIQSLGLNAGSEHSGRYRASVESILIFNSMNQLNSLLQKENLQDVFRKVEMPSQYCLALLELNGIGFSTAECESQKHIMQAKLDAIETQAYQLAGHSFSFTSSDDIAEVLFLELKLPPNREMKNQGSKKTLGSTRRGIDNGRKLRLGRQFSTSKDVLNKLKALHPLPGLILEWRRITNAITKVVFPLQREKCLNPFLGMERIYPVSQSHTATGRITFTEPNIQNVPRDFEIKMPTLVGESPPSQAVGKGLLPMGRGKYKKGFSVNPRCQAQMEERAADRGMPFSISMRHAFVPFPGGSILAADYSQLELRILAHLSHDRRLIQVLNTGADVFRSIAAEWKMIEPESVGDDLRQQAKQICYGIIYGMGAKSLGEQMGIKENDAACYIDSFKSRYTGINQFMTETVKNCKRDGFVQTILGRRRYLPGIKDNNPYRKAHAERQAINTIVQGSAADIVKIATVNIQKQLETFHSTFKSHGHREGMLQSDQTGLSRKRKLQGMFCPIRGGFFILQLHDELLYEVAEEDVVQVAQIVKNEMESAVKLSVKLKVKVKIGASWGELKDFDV
For `Cc1ccccc1/C=C/C1=NCCN1`, the remaining activity was 105% (POLQ ATPase domain; enzyme activity, inhibitor; 77 µM; baseline: untreated).
`COc1ccc(-c2c(Nc3ccccn3)[nH]c3c(C4=CCCCC4)c(-c4ccccc4)nn3c2=O)cc1` — result for “percent change from baseline”: -64.3% and -69.3% and -75.6% (refers to: S-adenosylmethionine; human, plasma; oral, 200 mg twice daily, cycle 1 day 15).
For `N=C(NC(=O)c1nc(Cl)c(N)nc1N)Nc1ccccc1`, the remaining activity was 100% (POLQ ATPase domain; enzyme activity, inhibitor; 77 µM; baseline: untreated).

Excerpt of the above (sample 6):
`COc1cc([C@H]2Oc3ccc([C@H]4Oc5cc(O)cc(O)c5C(=O)[C@@H]4O)cc3O[C@@H]2CO)ccc1O` gave an inhibition of 3%.
With `C[C@@H]1C/C=C/C=C/C=C/C=C/[C@H](O[C@@H]2O[C@H](C)[C@@H](O)[C@H](N)[C@@H]2O)C[C@@H]2O[C@](O)(C[C@@H](O)C[C@H]3O[C@@H]3/C=C/C(=O)O1)C[C@H](O)[C@H]2C(=O)O` the inhibition was -19%.
The inhibition of `O=C(O)C=Cc1ccc(O)cc1` is reported as -22%.
`CCOC(=O)n1ccn(C)c1=S` gave an inhibition of -18%.
